Assay results of several laboratories.
Each line is one published result; not all experiments were run side by side. ± gives the spread as reported.

COc1cc(Nc2ncc3c(n2)-c2ccc(Cl)cc2C(c2c(F)cccc2OC)=NC3)ccc1C(=O)O — AUC dosing interval (human, plasma; oral, 50 mg twice daily, day 7, steady state geometric mean): 20.9 µM·h
COc1ccc(-c2ccc3c(N4CCOC[C@@H]4C)nc(N4CCOC[C@@H]4C)nc3n2)cc1CO — AUC at steady state (human, plasma; oral, 20 mg twice daily, oral solution): 47 to 74.6 ng·h/mL
CCOc1ccc(Cc2cc([C@]34OC[C@](CO)(O3)[C@@H](O)[C@H](O)[C@H]4O)ccc2Cl)cc1 — AUC (human, type 2 diabetes, severe renal impairment, plasma; oral, 15 mg): 1900 ng·h/mL
CO[C@H]1C[C@@H]2CC[C@@H](C)[C@@](O)(O2)C(=O)C(=O)N2CCCC[C@H]2C(=O)O[C@H]([C@H](C)C[C@@H]2CC[C@@H](O)[C@H](OC)C2)CC(=O)[C@H](C)/C=C(\C)[C@@H](O)[C@@H](OC)C(=O)[C@H](C)C[C@H](C)/C=C/C=C/C=C/1C — AUC (human, whole blood; oral, 10 mg, mean): 615 ng·h/mL
CCCCCCCCCCCCCCC[C@H](O)[C@@H](N)CO — AUC (human, phase I, plasma; intravenous, 840 mg/m^2, day 1, monotherapy): 110 µM·h
Cc1nc(-c2ccc(OCC(C)C)c(C#N)c2)sc1C(=O)O — AUC ratio (human male, plasma; oral, 80 mg, added: verinurad 2.5 mg; reference: with over without verinurad): 96.2%
Cc1[nH]c(/C=C2\C(=O)Nc3ccccc32)c(C)c1CCC(=O)O — AUC (HPLC-UV; human, plasma; oral, 500 mg/m^2 twice daily, day 28): 61200 ng·h/mL
CCOc1ccc(Cc2cc([C@]34OC[C@](CO)(O3)[C@@H](O)[C@H](O)[C@H]4O)ccc2Cl)cc1 — AUC dose-proportionality slope fold change (pooled meta-analysis; human, plasma; oral, dose not given, added: light meal; reference: fasted): 0.896
COc1cc(Nc2ncc3c(n2)-c2ccc(Cl)cc2C(c2c(F)cccc2OC)=NC3)ccc1C(=O)O — AUC steady state (human, phase I; oral, 30 mg, 0 to 8 h, estimated by accumulation): 7500 ± 1730 ng·h/mL
COc1cc2nccc(Oc3ccc(NC(=O)C4(C(=O)Nc5ccc(F)cc5)CC4)cc3)c2cc1OC — AUC (population PK model; human, metastatic renal cell carcinoma, plasma; oral, dose not given): 18000 ng·h/mL
CC(C)c1nc(N(C)S(C)(=O)=O)nc(-c2ccc(F)cc2)c1/C=C/[C@@H](O)C[C@@H](O)CC(=O)O — AUC increase (human, plasma; oral, dose not given, added: finerenone 40 mg steady state simultaneous; reference: compound alone): 14%
O=c1[nH]cc(F)c(=O)[nH]1 — AUC (human, plasma; intravenous, 2400 mg/m^2 maintenance, cycle 1 without vorinostat, twice-daily cohort): 21800 ± 9680 ng·h/mL

Repeated from above:
CC(C)c1nc(N(C)S(C)(=O)=O)nc(-c2ccc(F)cc2)c1/C=C/[C@@H](O)C[C@@H](O)CC(=O)O — AUC increase (human, plasma; oral, dose not given, added: finerenone 40 mg steady state simultaneous; reference: compound alone): 14%
O=c1[nH]cc(F)c(=O)[nH]1 — AUC (human, plasma; intravenous, 2400 mg/m^2 maintenance, cycle 1 without vorinostat, twice-daily cohort): 21800 ± 9680 ng·h/mL
